Assay results from different studies.
Cell line: UO-31

O=C1NC(=NCc2cccs2)S/C1=C\c1ccc2ncccc2c1
IC50 (MTS; NCI60 panel): > 10 µM

CCCN1CCN(c2ccc3nc(-c4ccc5nc(-c6cc(OC)ccc6OC)[nH]c5c4)[nH]c3c2)CC1
growth percent (SRB; 10 µM, 48 h): 85.7%

Cc1n[nH]c2nc(-c3ccc(Cl)cc3)c3c(NC(=O)c4ccccc4)nnc-3n12
cell growth (SRB; 10 µM, NCI60 single-dose screen; reference: untreated): 82.2%

CCCCN1CCN(c2ccc3[nH]c(-c4ccc5[nH]c(-c6cc(OC)c(OC)c(OC)c6)nc5c4)nc3c2)CC1
growth percent (SRB; 10 µM, 48 h): 79.8%

O=C1NC(c2ccccc2)(c2ccccc2)C(=O)N1Cc1cn(-c2c3ccccc3nc3ccccc23)nn1
growth percentage (NCI60 single-dose screen; 10 µM): 62.4%

Cc1cc(C)n(-c2nc(-c3ccc(Cl)cc3)c3c(NC(=O)c4ccccc4)nnc-3[nH]2)n1
cell growth (SRB; 10 µM, NCI60 single-dose screen; reference: untreated): 75.5%

CCCCN1CCN(c2ccc3[nH]c(-c4ccc5[nH]c(-c6ccc(OCC)c(OCC)c6)nc5c4)nc3c2)CC1
growth percent (SRB; 10 µM, 48 h): 74.4%

C#C[C@@]1(O)[C@@H](CO)O[C@@H](n2ccc3c(N)ncnc32)[C@@H]1O
TGI (SRB; NCI-60 screen): 3.58 µM

CSc1nc(-c2ccc(Cl)cc2)c2c(NC(=O)c3ccccc3)nnc-2[nH]1
cell growth (SRB; 10 µM, NCI60 single-dose screen; reference: untreated): 64.7%

S=C([S][Au-][P+](CCCCCC[P+]([Au-][S]C(=S)n1cccn1)(c1ccccc1)c1ccccc1)(c1ccccc1)c1ccccc1)n1cccn1
log10 TGI (cell growth, NCI-60 screen; renal cancer): > -4

CCOC(=O)CSc1nc(-c2ccc(Cl)cc2)c2c(NC(=O)c3ccccc3)nnc-2[nH]1
cell growth (SRB; 10 µM, NCI60 single-dose screen; reference: untreated): 83.9%

O=c1ccn(Cc2cn(-c3cc4ccccc4oc3=O)nn2)c(=O)[nH]1
growth percentage (NCI60 single-dose screen; 10 µM): 83.1%

CCCCN1CCN(c2ccc3[nH]c(-c4ccc5[nH]c(-c6ccc(OCC)cc6)nc5c4)nc3c2)CC1
growth percent (SRB; 10 µM, 48 h): 100%

Cc1cc(=O)[nH]c(=O)n1Cc1cn(-c2cc3ccccc3oc2=O)nn1
growth percentage (NCI60 single-dose screen; 10 µM): 85.3%

O=C(Nc1nnc2n3c(nc(-c4ccc(Cl)cc4)c1-2)SCC3=O)c1ccccc1
cell growth (SRB; 10 µM, NCI60 single-dose screen; reference: untreated): 89.9%

O=c1ccn(Cc2cn(-c3c4ccccc4nc4ccccc34)nn2)c(=O)[nH]1
growth percentage (NCI60 single-dose screen; 10 µM): 88%

CN1CCN(c2ccc3[nH]c(-c4ccc5[nH]c(-c6ccc(C(F)(F)F)cc6)nc5c4)nc3c2)CC1
growth percent (SRB; 10 µM, 48 h): 105%

Cc1cc(=O)[nH]n1-c1nc(-c2ccc(Cl)cc2)c2c(NC(=O)c3ccccc3)nnc-2[nH]1
cell growth (SRB; 10 µM, NCI60 single-dose screen; reference: untreated): 87.6%

CCCN1CCN(c2ccc3[nH]c(-c4ccc5[nH]c(-c6ccc(C(F)(F)F)cc6)nc5c4)nc3c2)CC1
growth percent (SRB; 10 µM, 48 h): 79.7%

Cn1cncc1C1=CN(c2ncnc3[nH]cnc23)CCS1
TGI (renal cancer): 129 µM

A few entries again:
CCOC(=O)CSc1nc(-c2ccc(Cl)cc2)c2c(NC(=O)c3ccccc3)nnc-2[nH]1
cell growth (SRB; 10 µM, NCI60 single-dose screen; reference: untreated): 83.9%

O=c1ccn(Cc2cn(-c3cc4ccccc4oc3=O)nn2)c(=O)[nH]1
growth percentage (NCI60 single-dose screen; 10 µM): 83.1%

CCCCN1CCN(c2ccc3[nH]c(-c4ccc5[nH]c(-c6ccc(OCC)cc6)nc5c4)nc3c2)CC1
growth percent (SRB; 10 µM, 48 h): 100%
